Results pooled from the literature.
A part holds a random share of what one study measured. Changes are numbered by the printed parent chain.

Sample 1
Target: CCNA1, cyclin fold, Cln2 fusion (human)
Method: yeast growth competition, sequencing
Sample: yeast
Setting: weak parent motif
Relative to: not given
Direction: higher = stronger binding
Measurement: normalised enrichment score
Starting sequence: CDC25A docking peptide (human); PPHRRRLLFACSP; partner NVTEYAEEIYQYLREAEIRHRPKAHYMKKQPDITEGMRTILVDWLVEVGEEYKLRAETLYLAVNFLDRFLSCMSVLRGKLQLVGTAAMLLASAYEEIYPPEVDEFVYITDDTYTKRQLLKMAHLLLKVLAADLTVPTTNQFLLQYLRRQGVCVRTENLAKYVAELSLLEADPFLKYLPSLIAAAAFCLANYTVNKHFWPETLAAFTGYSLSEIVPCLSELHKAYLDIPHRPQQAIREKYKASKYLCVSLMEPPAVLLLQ
S12Q: 0.12
R5V: 0.448
R4G: 0.347
P2T: 0.629
P13T: 0.348
P1Y: 0.202

Sample 2
Target: Histone acetyltransferase KAT6A, both winged helices, GST fusion (KAT6A, Homo sapiens, UniProt Q92794, residues 1-181)
Method: protein binding microarray
Form: double-stranded DNA, one strand shown
Sample: in vitro
Tested at: not given
Setting: 8-mer, flanks averaged, mean of 2 arrays, mostly near background
Relative to: not given
Direction: higher = stronger binding
Measurement: E-score
Residues (chain): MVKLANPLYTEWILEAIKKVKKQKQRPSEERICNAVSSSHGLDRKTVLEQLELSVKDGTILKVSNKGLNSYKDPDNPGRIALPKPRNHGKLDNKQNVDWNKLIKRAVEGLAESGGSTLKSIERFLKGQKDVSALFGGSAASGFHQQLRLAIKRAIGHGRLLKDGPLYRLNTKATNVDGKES
TGGTTAAA: 0.013
CCTGACGC: 0.0827
CGATTGTC: 0.0871
AATTATCC: -0.0465
ACCGCTAT: 0.22
GCCCCGAC: 0.0858
GCGGACAA: 0.138
GCGTATCC: 0.191
GCTCTCGA: -0.05

Sample 3
Target: Sal-like protein 4, full length isoform A (SALL4, Homo sapiens, UniProt Q9UJQ4, residues 1-1053)
Chain of UniProt Q9UJQ4 (whole entry, looked up): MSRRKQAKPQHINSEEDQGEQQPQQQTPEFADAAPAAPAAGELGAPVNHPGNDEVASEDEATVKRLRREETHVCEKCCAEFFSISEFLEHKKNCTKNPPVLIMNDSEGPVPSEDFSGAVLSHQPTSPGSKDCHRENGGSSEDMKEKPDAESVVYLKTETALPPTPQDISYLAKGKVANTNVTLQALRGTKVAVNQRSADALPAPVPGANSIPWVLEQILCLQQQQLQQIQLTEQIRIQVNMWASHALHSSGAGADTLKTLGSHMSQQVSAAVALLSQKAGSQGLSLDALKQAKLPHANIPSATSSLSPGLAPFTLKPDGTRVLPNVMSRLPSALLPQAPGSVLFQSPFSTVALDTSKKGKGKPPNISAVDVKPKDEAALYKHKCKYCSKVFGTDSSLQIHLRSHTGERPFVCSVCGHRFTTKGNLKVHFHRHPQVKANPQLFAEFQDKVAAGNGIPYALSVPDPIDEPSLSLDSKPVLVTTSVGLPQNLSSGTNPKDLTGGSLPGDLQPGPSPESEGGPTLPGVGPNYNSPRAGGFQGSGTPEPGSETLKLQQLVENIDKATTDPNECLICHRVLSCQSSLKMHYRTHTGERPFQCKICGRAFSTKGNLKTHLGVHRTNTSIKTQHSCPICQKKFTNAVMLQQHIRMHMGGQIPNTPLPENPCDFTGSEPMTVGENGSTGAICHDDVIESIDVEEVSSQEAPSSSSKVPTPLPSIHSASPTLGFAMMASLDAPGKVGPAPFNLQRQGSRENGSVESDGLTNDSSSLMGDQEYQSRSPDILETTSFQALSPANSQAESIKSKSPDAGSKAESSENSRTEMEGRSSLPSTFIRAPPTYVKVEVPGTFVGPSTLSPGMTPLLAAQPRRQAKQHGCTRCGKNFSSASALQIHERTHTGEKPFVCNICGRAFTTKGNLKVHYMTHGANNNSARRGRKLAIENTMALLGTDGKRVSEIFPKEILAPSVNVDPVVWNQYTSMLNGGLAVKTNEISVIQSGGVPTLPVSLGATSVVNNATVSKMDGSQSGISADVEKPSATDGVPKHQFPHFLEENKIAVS
Method: universal PBM
Form: double-stranded DNA, one strand shown
Sample: in vitro
Tested at: 600 nM
Setting: 8-mer, flanks averaged, mean of replicates
Direction: higher = stronger binding
Measurement: E-score
CATTGCCA: 0.0677
ATCCTAAT: 0.176
CCTACGAC: -0.0279
ACATGTTG: 0.191
GGTGACCA: -0.255
AATAGAAC: 0.238
AGTTTGGC: -0.13

Further values, each from its own experiment
PhoQ, residues 284 288 289 292 302 303 NLCILV
fold induction (PhoP, residues 12 14 15 18 19 IFFTR (Escherichia coli, UniProt P23836); Sort-seq, item: YFP reporter; E. coli; PhoQ-PhoP variant library, added: 10 µM Mg2+; relative to: high Mg2+ state, higher = stronger signaling): 2.17

Some of these lines once more (sample 1):
R4G: 0.347
